Experimental data collected from several papers.
“And” joins repeats or separate records; there may be more than shown. Numbers after ± are the reported error.

NS(=O)(=O)c1cccc(-c2ccc([C@H]3[C@@H](F)[C@@H](F)C[C@@H](F)[C@H]3F)cc2)c1
hepatic clearance (liver microsome stability; dog liver microsomes; 1 µM): 10 mL/min/kg

O=C(N/N=C/c1ccc2c(ccc[n+]2Cc2ccccc2)c1)N/N=C/c1ccc2c(ccc[n+]2Cc2ccccc2)c1
ΔTm (22CTA telomeric G4-DNA antiparallel; FRET melting; 1 µM, K10 buffer, DNA 0.2 µM, together with: ds26 10 µM): 9.3 ± 0.2 °C

CN(C)C(=O)CNC(=O)c1ccc([C@H]2[C@@H](F)[C@@H](F)C[C@@H](F)[C@H]2F)cc1
hepatic clearance (liver microsome stability; rat liver microsomes; 1 µM): 6.1 mL/min/kg

O=c1c(Oc2ccccc2)c(C(F)(F)F)oc2c(O)c(O)ccc12
Cdc34b-ubiquitin remaining (ROC1-CUL1 E3 subcomplex; Cdc34-ubiquitin discharge; 1 µM; reference: input): 1.9%

O=C(N/N=C/c1cc[n+](Cc2ccccc2)c2ccccc12)c1ccc2ccc3ccc(C(=O)N/N=C/c4cc[n+](Cc5ccccc5)c5ccccc45)nc3c2n1
ΔTm (22CTA telomeric G4-DNA antiparallel; FRET melting; 1 µM, K10 buffer, DNA 0.2 µM): 20.7 ± 1.2 °C

N#Cc1ccc(-c2cnc(C(=O)CCCCCCc3ccccc3)o2)nc1
duration of inhibition (fatty-acid amide hydrolase (mouse); item: AEA, OEA, PEA levels; mouse, brain; i.p., dose not given): > 6 h

c1ccc(-c2n[nH]cc2-c2ccnc3ccccc23)nc1
log2 fold change (CMK1 (Candida albicans); kinase binding, MIB/MS competition; Candida albicans lysate; 1 µM; reference: DMSO): -0.13

OC[C@H]1O[C@@H]2O[C@H]3[C@H](O)[C@@H](O)[C@@H](O[C@H]4[C@H](O)[C@@H](O)[C@@H](O[C@H]5[C@H](O)[C@@H](O)[C@@H](O[C@H]6[C@H](O)[C@@H](O)[C@@H](O[C@H]7[C@H](O)[C@@H](O)[C@@H](O[C@H]1[C@H](O)[C@H]2O)O[C@@H]7CO)O[C@@H]6CO)O[C@@H]5CO)O[C@@H]4CO)O[C@@H]3CO
bioluminescence induction (LuxR; Escherichia coli sensor; 40 µM; higher = stronger induction): 870 ± 97 RLU

O=c1c(-c2cnn(-c3ccc(Cl)cc3)c2)c(C(F)(F)F)oc2c(O)c(O)ccc12
Cdc34b-ubiquitin remaining (ROC1-CUL1 E3 subcomplex; Cdc34-ubiquitin discharge; 37.5 µM; reference: input): 3.5%

CCC(=O)N(C)c1ccc(Cl)c(Cl)c1
inhibition (somatostatin receptor, non-selective; radioligand binding; 10 µM): < 10%

Cn1ccc2cc(-n3c(=O)[nH]c4sc5c(c4c3=O)CCCC5)ccc21
inhibition (mouse phorbol ester site; radioligand binding; 10 µM): -6%

CC(C)Oc1cc(Cl)ccc1CNc1cc(-c2ccccc2)nc2ncnn12
cAMP luminescence (endogenous β-adrenergic receptors; cAMP level, cAMP GloSensor; mock-transfected cells; 10 µM, together with: isoprenaline 30 nM; higher = more cAMP): 25400 a.u. and 27800 a.u. and 24400 a.u.

Cc1cn(CC(=O)N(CC(=O)N[C@H]2CCC[C@@H]2N(CC(=O)N[C@H]2COC[C@@H]2N(CC(=O)N[C@H]2COC[C@@H]2N(CC(=O)N[C@H]2COC[C@@H]2N(CC(=O)NCCOCCOCC(N)=O)C(=O)Cn2cnc3c(N)ncnc32)C(=O)Cn2cc(C)c(=O)[nH]c2=O)C(=O)Cn2cnc3c(N)ncnc32)C(=O)Cn2cnc3c(=O)[nH]c(N)nc32)[C@H]2CCC[C@@H]2NC(=O)CN(C(=O)Cn2cnc3c(=O)[nH]c(N)nc32)[C@H]2CCC[C@@H]2NC(=O)CN(C(=O)Cn2cc(C)c(=O)[nH]c2=O)[C@H]2COC[C@@H]2NC(=O)CN(C(=O)Cn2cnc3c(N)ncnc32)[C@H]2COC[C@@H]2NC(=O)CN(C(=O)Cn2cnc3c(=O)[nH]c(N)nc32)[C@H]2COC[C@@H]2N)c(=O)[nH]c1=O
ΔTm (mismatched RNA TU; duplex formation, UV melting; reference: complementary RNA): -19.7 °C

O=C(N/N=C/c1ccc2c(ccc[n+]2Cc2ccccc2)c1)c1cncc(C(=O)N/N=C/c2ccc3c(ccc[n+]3Cc3ccccc3)c2)n1
ΔTm (22CTA telomeric G4-DNA antiparallel; FRET melting; 1 µM, K10 buffer, DNA 0.2 µM): 17.4 ± 0.3 °C

C=CC(=O)N1[C@@H](c2ccc3c(c2)OCO3)c2[nH]c3ccccc3c2C[C@H]1C(=O)N1CCN(C)CC1
relative co-enrichment (human cyclin E1 N112C-3xFLAG:CDK2; co-IP with TMT proteomics, item: ELP5; concentration not given, Q8TE02; reference: wild type DMSO): 65%

C[n+]1ccc(/C=N/NC(=O)c2ccc3ccc(C(=O)N/N=C/c4cc[n+](C)c5ccccc45)nc3n2)c2ccccc21
ΔTm (22CTA telomeric G4-DNA antiparallel; FRET melting; 1 µM, K10 buffer, DNA 0.2 µM): 20.6 ± 0.3 °C

Cc1[nH]nc2c1N=C(c1ccccc1Cl)c1cnc(N3CCOCC3)cc1N2
inhibition (NMDA receptor agonist site, rat; radioligand binding; 10 µM): 0%

O=C(N/N=C/c1cc[n+](Cc2ccccc2)c2ccccc12)c1cccc(C(=O)N/N=C/c2cc[n+](Cc3ccccc3)c3ccccc23)n1
ΔTm (22CTA telomeric G4-DNA antiparallel; FRET melting; 1 µM, K10 buffer, DNA 0.2 µM): 17.8 ± 0.6 °C

C=CC(=O)Nc1cccc(Cn2ncc3cnc(Nc4cnn(CCOC)c4)nc32)c1
percent of control (FGFR4 human; binding, KINOMEscan; 100 nM; lower = stronger binding): 83%

O=C(N/N=C/c1cc[n+](CC2CC2)c2ccccc12)c1cc(C(=O)N/N=C/c2cc[n+](CC3CC3)c3ccccc23)ncn1
ΔTm (22CTA telomeric G4-DNA antiparallel; FRET melting; 1 µM, K10 buffer, DNA 0.2 µM): 10.5 ± 1.7 °C

Nc1ncc(-c2cc(-c3cnn(CC(F)(F)F)c3)ncc2F)nc1C(=O)NC1CNCC(F)C1 (stereo not drawn)
remaining binding (DCAMKL1; KINOMEscan; 1 µM; reference: DMSO control): 76%

Some of these lines once more:
O=C(N/N=C/c1cc[n+](Cc2ccccc2)c2ccccc12)c1cccc(C(=O)N/N=C/c2cc[n+](Cc3ccccc3)c3ccccc23)n1
ΔTm (22CTA telomeric G4-DNA antiparallel; FRET melting; 1 µM, K10 buffer, DNA 0.2 µM): 17.8 ± 0.6 °C

C=CC(=O)Nc1cccc(Cn2ncc3cnc(Nc4cnn(CCOC)c4)nc32)c1
percent of control (FGFR4 human; binding, KINOMEscan; 100 nM; lower = stronger binding): 83%

O=C(N/N=C/c1cc[n+](CC2CC2)c2ccccc12)c1cc(C(=O)N/N=C/c2cc[n+](CC3CC3)c3ccccc23)ncn1
ΔTm (22CTA telomeric G4-DNA antiparallel; FRET melting; 1 µM, K10 buffer, DNA 0.2 µM): 10.5 ± 1.7 °C
